Measured values collected from several papers.
Compare with care: the assays were run in different laboratories. ± marks the error that the study gave. Converted amounts (≈) assume the structure as drawn.

SMILES | target | test | system | conditions | how to read | endpoint | value
CCCCCO[C@H]1[C@H](O)[C@@H](N)[C@@H](O[C@H]2[C@H](O[C@@H]3O[C@H](CO)[C@@H](O[C@H]4O[C@@H](CN)[C@@H](O)[C@H](O)[C@H]4N)[C@H]3O)[C@@H](O)[C@H](N)C[C@@H]2N)O[C@@H]1CO | ribosome with mitochondrial A1555G A site | luciferase translation, cell-free translation |  |  |  | IC50 | 81.1 ± 8.77 µg/mL (≈ 118 µM)
Cc1cc2c(cc1Cl)-c1c(c(C(=O)NC3CCCCC3)nn1-c1ccc(Cl)cc1Cl)C2 | cannabinoid receptor CB2 (human) | agonist, western blot | HL-60 | 0.125 µM, 15 min | baseline: vehicle | ERK1/2 phosphorylation | 82.5 ± 19.1%
C/C=C1/NC(=O)[C@@H](NC(=O)[C@H](CCC(N)=O)NC(=O)[C@@H]2CCCN2C=O)[C@@H](C)OC(=O)[C@H](C(C)C)NC(=O)[C@H](Cc2ccc(O)cc2)N(C)C(=O)[C@H](Cc2ccccc2)N2C(=O)[C@H](CC[C@H]2O)NC1=O | trypsin (pig) | inhibitor |  | 10 µM, 15 min preincubation, pH 7.8, 37 °C, added: BAPNA |  | inhibition | no inhibition
O=C1C=CC(=O)C(c2cc(Cl)ccc2Cl)=C1 | SHP-1 (human) | Western blot | Jurkat | concentration not given, 10 min |  | pLAT level | increased
CCCO[C@H]1[C@H](O)[C@@H](N)[C@@H](O[C@H]2[C@H](O[C@@H]3O[C@H](CO)[C@@H](O[C@H]4O[C@@H](CN)[C@@H](O)[C@H](O)[C@H]4N)[C@H]3O)[C@@H](O)[C@H](N)C[C@@H]2N)O[C@@H]1CO | ribosome with mitochondrial A1555G A site | luciferase translation, cell-free translation |  |  |  | IC50 | 152 ± 31.4 µg/mL (≈ 231 µM)
C=C(C)[C@H]1Cc2c(ccc3c2O[C@@H]2COc4cc(OC)c(OC)cc4[C@@H]2C3=O)O1 | mitochondrial complex I | Seahorse respirometry | MC65 Tet-On | 32 nM |  | inhibition | ~50%
COCOC[C@H]1O[C@H](O[C@H]2[C@H](O[C@@H]3O[C@H](CO)[C@@H](O[C@H]4O[C@@H](CN)[C@@H](O)[C@H](O)[C@H]4N)[C@H]3O)[C@@H](O)[C@H](N)C[C@@H]2N)[C@H](N)[C@@H](O)[C@@H]1OCOC | ribosome with mitochondrial A1555G A site | luciferase translation, cell-free translation |  |  |  | IC50 | > 700 µg/mL
Cc1c(-c2cccc(C3=NCCN3)c2)oc(-c2cccc(C3=NCCN3)c2)c1C | human telomeric G-quadruplex DNA F21T | G-quadruplex stabilisation, FRET melting |  | 1 µM |  | ΔTm | 22.3 °C
CCN(CC)CCOc1ccc(-c2nnn(Cc3ccc(OC)cc3)c2N)cc1 | RKIP and MEK1/2 | protein interaction, pull-down | HEK293 lysate | 10 µM |  | binding | no effect
C[C@H](NC(=O)[C@@H]1CCCN1C(=O)[C@H](Cc1ccc(O)cc1)NC(=O)CNC(=O)[C@H](CO)NC(=O)[C@H](Cc1ccccc1)NC(=O)[C@@H](N)[C@@H](C)O)C(=O)N[C@@H](Cc1ccccc1)C(=O)O | rat mu opioid receptor | outward current, agonist, voltage clamp | supraoptic nucleus neurons, Sprague Dawley rat | holding potential -50 mV |  | EC50 | 0.0766 µM
CCO[C@H]1[C@H](O)[C@@H](N)[C@@H](O[C@H]2[C@H](O[C@@H]3O[C@H](CO)[C@@H](O[C@H]4O[C@@H](CN)[C@@H](O)[C@H](O)[C@H]4N)[C@H]3O)[C@@H](O)[C@H](N)C[C@@H]2N)O[C@@H]1CO | Mycobacterium smegmatis ribosome A1408G | translation, cell-free translation |  |  | baseline: A1408G mutant over wild type | IC50 ratio | 100
C[C@H]1CN(Cc2ccc(C(F)(F)F)cc2N2C3CCC2CN(CC(=O)O)C3)CCN1C(=O)n1ccc(S(=O)(=O)N(C)C)n1 | human N-Ras | N-Ras palmitoylation |  |  |  | EC50 | 0.029 µM
C=CCO[C@H]1[C@H](O)[C@@H](N)[C@@H](O[C@H]2[C@H](O[C@@H]3O[C@H](CO)[C@@H](O[C@H]4O[C@@H](CN)[C@@H](O)[C@H](O)[C@H]4N)[C@H]3O)[C@@H](O)[C@H](N)C[C@@H]2N)O[C@@H]1CO | ribosome with mitochondrial A1555G A site | luciferase translation, cell-free translation |  |  |  | IC50 | 90.9 ± 9.96 µg/mL (≈ 139 µM)
CSCC[C@H](NC(=O)[C@H](Cc1ccccc1)NC(=O)CNC(=O)CNC(=O)[C@@H](N)Cc1ccc(O)cc1)C(=O)O | delta opioid receptor (Rana pipiens) |  |  |  |  | EC50 | 0.18 µM
O=C1c2ccccc2N(Cc2cccc(Cl)c2)C12CCCC2 | acetylcholinesterase |  |  | 10 µM |  | remaining activity | 70.2 ± 5.56%
CCCCCCCCC(=O)NCc1ccc(O)c(OC)c1 | mAb 5-D8 | antibody binding, indirect competitive ELISA |  | added: coating antigen hapten 2-OVA |  | IC50 | 0.0595 µg/mL (≈ 0.203 µM)
N#Cc1ccc(CN2c3ccccc3C(=O)C23CCCC3)cc1 | acetylcholinesterase |  |  | 10 µM |  | remaining activity | 54.6 ± 5.23%
CO[C@H]1[C@H](O)[C@@H](N)[C@@H](O[C@H]2[C@H](O[C@@H]3O[C@H](CO)[C@@H](O[C@H]4O[C@@H](CN)[C@@H](O)[C@H](O)[C@H]4N)[C@H]3O)[C@@H](O)[C@H](N)C[C@@H]2N)O[C@@H]1CO | Mycobacterium smegmatis ribosome A1408G | translation, cell-free luciferase synthesis |  |  |  | IC50 | 14.2 ± 6.74 µg/mL (≈ 22.6 µM)
O=C1c2ccccc2N(Cc2cccc(Br)c2)C12CCCC2 | acetylcholinesterase |  |  | 10 µM |  | remaining activity | 68.6 ± 2.92%
CC[C@H](C)[C@H](NC(=O)[C@H](Cc1ccccc1)NC(=O)[C@H](CCC(=O)O)NC(=O)[C@H](CCCCNC(=O)COCC(=O)NCCCOCCOCCOCCCNC(=O)CNC(=O)[C@@H]1CCCN1C(=O)CNC(=O)[C@@H]1CCCN1C(=O)CNC(=O)[C@@H]1CCCN1C(=O)[C@H](CCCCNC(=O)CN(CCN(CCN(CC(=O)O)CC(=O)O)CC(=O)O)CC(=O)O)NC(=O)COCC(=O)NCCCOCCOCCOCCCNC(=O)COCC(=O)NCCOc1ccc(Cl)cc1C(=O)NCCc1ccc(S(=O)(=O)NC(=O)NC2CCCCC2)cc1)NC(=O)[C@H](C)NC(=O)[C@H](C)NC(=O)[C@H](CCC(N)=O)NC(=O)CNC(=O)[C@H](CCC(=O)O)NC(=O)[C@H](CC(C)C)NC(=O)[C@H](Cc1ccc(O)cc1)NC(=O)[C@H](CO)NC(=O)[C@H](CO)NC(=O)[C@@H](NC(=O)[C@H](CC(=O)O)NC(=O)[C@H](CO)NC(=O)[C@@H](NC(=O)[C@H](Cc1ccccc1)NC(=O)[C@@H](NC(=O)CNC(=O)[C@H](CCC(=O)O)NC(=O)[C@H](C)NC(=O)[C@@H](N)Cc1c[nH]cn1)[C@@H](C)O)[C@@H](C)O)C(C)C)C(=O)N[C@@H](C)C(=O)N[C@@H](Cc1c[nH]c2ccccc12)C(=O)N[C@@H](CC(C)C)C(=O)N[C@H](C(=O)N[C@@H](CCCNC(=N)N)C(=O)NCC(=O)N[C@@H](CCCNC(=N)N)C(=O)NCC(N)=O)C(C)C | GLP-1R and SUR1 | saturation binding, time-resolved fluorescence | βTC3 |  | baseline: bivalent over best monovalent element | affinity shift | ~3 fold
CCCCO[C@H]1[C@H](O)[C@@H](N)[C@@H](O[C@H]2[C@H](O[C@@H]3O[C@H](CO)[C@@H](O[C@H]4O[C@@H](CN)[C@@H](O)[C@H](O)[C@H]4N)[C@H]3O)[C@@H](O)[C@H](N)C[C@@H]2N)O[C@@H]1CO | ribosome with mitochondrial A1555G A site | luciferase translation, cell-free translation |  |  |  | IC50 | 148 ± 30.6 µg/mL (≈ 221 µM)
CCCCCCCC/C=C\CCCCCCCC(=O)Oc1cccc(SSC[C@H](N)C(=O)N[C@@H](Cc2ccc(O)cc2)C(=O)NCC(=O)N[C@@H](C)C(=O)N[C@@H](CCCCN)C(N)=O)c1 | calpain, rabbit | enzyme activity | rabbit renal proximal tubule cells | 1 µM, 30 min |  | inhibition | ~20%
CC[C@H](C)[C@@H]1NC(=O)[C@H](Cc2ccc(O)cc2)NC(=O)[C@@H](N)CSSC[C@@H](C(=O)N2CCC[C@H]2C(=O)N2CCC[C@H]2C(=O)NCC(N)=O)NC(=O)[C@H](CC(N)=O)NC(=O)[C@H](CCC(N)=O)NC1=O | oxytocin receptor (Callithrix jacchus) | membrane hyperpolarisation | CHO cells |  |  | Emax | 5210 RFU
NC[C@@H]1O[C@H](O[C@H]2[C@@H](O)[C@H](O[C@@H]3[C@@H](O)[C@H](N)C[C@H](N)[C@H]3O[C@H]3O[C@H](CO)[C@@H](OCCCO)[C@H](O)[C@H]3N)O[C@@H]2CO)[C@H](N)[C@@H](O)[C@@H]1O | Mycobacterium smegmatis ribosome A1408G | translation, cell-free luciferase synthesis |  |  |  | IC50 | 38.1 ± 5.73 µg/mL (≈ 56.6 µM)
CC(C)C[C@H](NC(=O)[C@H](C)NC(=O)[C@H](CCCCN)NC(=O)CCNC(=S)Nc1ccc2c(c1)C(=O)OC21c2ccc(O)cc2Oc2cc(O)ccc21)C(=O)N[C@@H](CCC(=O)O)C(=O)N[C@H](C(=O)N[C@@H](CC(C)C)C(=O)N[C@@H](CCCNC(=N)N)C(=O)N[C@@H](CCCNC(=N)N)C(=O)N[C@H](C(=O)NCC(=O)N[C@@H](CC(=O)O)C(=O)NCC(=O)N[C@H](C(=O)N[C@@]1(C)CCC/C=C\CCC[C@@](C)(C(=O)N[C@H](C(=O)N[C@@H](C)C(=O)N[C@@H](Cc2ccccc2)C(N)=O)[C@@H](C)O)NC(=O)[C@H](Cc2c[nH]cn2)NC(=O)[C@H](CC(N)=O)NC(=O)[C@H](CCCNC(=N)N)NC1=O)C(C)C)C(C)C)[C@@H](C)O | BAK |  | mouse liver mitochondria | concentration not given, 40 min |  | cytochrome c release | no effect
COc1ccc(F)cc1S(=O)(=O)Nc1cnc2c(c1)C(=O)NCCO2 | alkaline phosphatase | inhibitor | cynomolgus monkey, plasma | oral, dose not given, up to 8 h | baseline: vehicle | mean ALP inhibition | increased
CC[C@H]1CN2CCc3c([nH]c4cccc(OC)c34)[C@H]2C[C@@H]1/C(=C\OC)C(=O)OC | rabbit anti-mitragynine polyclonal IgG | competitive indirect ELISA |  | concentration not given | baseline: mitragynine | cross-reactivity | 8.23%

Some of these lines once more:
SMILES | target | test | system | conditions | how to read | endpoint | value
CCO[C@H]1[C@H](O)[C@@H](N)[C@@H](O[C@H]2[C@H](O[C@@H]3O[C@H](CO)[C@@H](O[C@H]4O[C@@H](CN)[C@@H](O)[C@H](O)[C@H]4N)[C@H]3O)[C@@H](O)[C@H](N)C[C@@H]2N)O[C@@H]1CO | Mycobacterium smegmatis ribosome A1408G | translation, cell-free translation |  |  | baseline: A1408G mutant over wild type | IC50 ratio | 100
CO[C@H]1[C@H](O)[C@@H](N)[C@@H](O[C@H]2[C@H](O[C@@H]3O[C@H](CO)[C@@H](O[C@H]4O[C@@H](CN)[C@@H](O)[C@H](O)[C@H]4N)[C@H]3O)[C@@H](O)[C@H](N)C[C@@H]2N)O[C@@H]1CO | Mycobacterium smegmatis ribosome A1408G | translation, cell-free luciferase synthesis |  |  |  | IC50 | 14.2 ± 6.74 µg/mL (≈ 22.6 µM)
